{"data": "Experimental data pooled from the literature", "note": "± gives the spread as reported."}
{"SMILES": "C=CCn1c(=O)c2cnc(Nc3ccc(N4CCN(C)CC4)cc3)nc2n1-c1cccc(C(C)(C)O)n1", "test system": "human", "conditions": "oral, 175 mg twice daily, cycle 1 day 17, together with: durvalumab 1500 mg IV", "how to read": "geometric mean", "quantity": "AUC(0-t)", "value": "6.67 µM·h"}
{"SMILES": "CC(C)=CCC/C(C)=C/CC/C(C)=C/CC[C@@](C)(O)CCC1=C(C)C(=O)C(C)=C(C)C1=O", "test system": "healthy human, plasma", "conditions": "oral, 400 mg, together with: itraconazole 200 mg", "quantity": "AUC(0-t) geometric mean", "value": "10800 ng·h/mL"}
{"SMILES": "Cc1cc(C)c(CNC(=O)c2cc(Cl)c3c(c2C)O[C@@](C)([C@H]2CC[C@H](N(C)C)CC2)O3)c(=O)[nH]1", "test": "mean", "test system": "healthy male humans, plasma", "conditions": "oral, 25 mg, day 1, alone, fluconazole group", "quantity": "AUC(0-t)", "value": "641 ng·h/mL"}
{"SMILES": "CO[C@H]1C[C@@H]2CC[C@@H](C)[C@@](O)(O2)C(=O)C(=O)N2CCCC[C@H]2C(=O)O[C@H]([C@H](C)C[C@@H]2CC[C@@H](OC(=O)NCCOCCOCCOCCOCCOCCOCCOCCOCCC(=O)N3CCc4cc(Cn5nc(-c6ccc7oc(N)nc7c6)c6c(N)ncnc65)ccc4C3)[C@H](OC)C2)C[C@@H](O)[C@H](C)/C=C(\\C)[C@@H](O)[C@@H](OC)C(=O)[C@H](C)C[C@H](C)/C=C/C=C/C=C/1C", "test system": "human, plasma", "conditions": "intravenous, 1.6 mg, cycle 1 day 1, arithmetic mean", "quantity": "AUC(0-t)", "value": "52.9 ng·h/mL"}
{"SMILES": "CCCCC1=NC2(CCCC2)C(=O)N1Cc1ccc(-c2ccccc2S(=O)(=O)Nc2noc(C)c2C)c(COCC)c1", "test system": "healthy humans, plasma", "conditions": "oral, 800 mg", "how to read": "reference: fed over fasted", "quantity": "AUC(0-t) ratio", "value": 1.22}
{"SMILES": "NC1(C(=O)N[C@@H](CCO)c2ccc(Cl)cc2)CCN(c2nc[nH]c3nccc2-3)CC1", "test system": "human patients, plasma", "conditions": "dose not given, cohort 160/320, cycle 0, geometric mean", "quantity": "AUC(0-t)", "value": "2150 ng·h/mL"}
{"SMILES": "C=CC(=O)N(C)CCOc1c(N)ncnc1-c1cc(F)cc(NC(=O)c2ccc(C3CC3)cc2F)c1C", "test system": "human, whole blood", "conditions": "oral, 400 mg, single ascending dose", "quantity": "AUC(0-t)", "value": "1060 ng·h/mL"}
{"SMILES": "Cc1cc(Nc2ncnc3ccc(NC4=NC(C)(CO)CO4)cc23)ccc1Oc1ccn2ncnc2c1 (stereo not drawn)", "test system": "human, plasma", "conditions": "tucatinib, day 10, together with: rifampin once daily", "quantity": "AUC(0-t) (arithmetic mean)", "value": "350 ng·h/mL"}
{"SMILES": "CCNCc1cc(Nc2ccnc3cc(Cl)ccc23)ccc1O", "test system": "humans, both sexes, plasma", "conditions": "oral, outlier included", "how to read": "reference: fixed over non-fixed combination", "quantity": "AUC(0-t) ratio", "value": 0.71}
{"SMILES": "Cl.[2H]C([2H])([2H])CC(=O)c1cnc(NC(=O)C2CC2)cc1Nc1cccc(-c2ncn(C([2H])([2H])[2H])n2)c1OC", "test system": "human, fed, plasma", "conditions": "oral, 25 mg, single dose, liquid formulation", "quantity": "AUC(0-t)", "value": "1800 ng·h/mL"}
{"SMILES": "CN(CC#N)C(=O)C[C@H](Nc1nc2ccccc2[nH]1)c1cccc(C(F)(F)F)c1", "test system": "human", "conditions": "intravenous infusion, 2 mg/kg, 10 mg/mL formulation", "quantity": "AUC(0-t)", "value": "15900 ± 8600 ng·h/mL"}
{"SMILES": "COc1ncc(-c2nc3c(n2C(C)C)[C@H](c2ccc(Cl)cc2)N(c2cc(Cl)cn(C)c2=O)C3=O)c(OC)n1", "test system": "human patients, plasma", "conditions": "oral, 20 mg, 0-24 h, low-dose arm, cycle 1 day 1", "quantity": "AUC(0-t) geometric mean", "value": "1960 ng·h/mL"}
